Experimental data pooled from the literature.
Each line is one published result; not all experiments were run side by side. Values joined by “and” are separate records of one study, mostly repeats; a detail may differ.

`Oc1ccccc1-c1n[nH]cc1-c1ccnc2ccccc12`: “log2 fold change” 0.42 (CKA1 (Candida albicans); kinase binding, MIB/MS competition; Candida albicans lysate; 10 µM; baseline: DMSO).
The sarcomere length of `O=C(O)CNC(=O)Cc1ccccc1` is reported as 1.72 µm (ventricular cardiomyocytes, C57BL/6 mouse; dose not given, 0.412 s).
With `NC(=O)c1cnc2[nH]ccc2c1N[C@@H]1[C@@H]2CC3C[C@H]1C[C@@](O)(C3)C2` the percent change was 0.03% (CD8+ effector memory T cells, flow cytometry; Japanese humans, peripheral blood; 20 mg single dose; baseline: baseline).
For `Cn1cc(-c2ccc(-c3cncc(Cl)c3N3CCC4(CCNC4=O)CC3)cc2)cn1`, “fold change in expression” read -2.7 (COLO 205; microarray, item: C1orf61; concentration not given, 6 h, gene set CROC-4; baseline: untreated cells).
`Cc1cccc(-c2[nH]c(CNc3ccccc3F)nc2-c2ccc3ncnn3c2)n1` gave a viability of 70% and 85% and 77% (MM1.S pomalidomide-resistant; XTT; 1 µM).
For `CC(C)n1ncc2c(C(=O)NCC3(C)CNC3)cc(C3CC3)nc21`, the virus titre was 10800 PFU/mL and 8000 PFU/mL (Enterovirus D68; time-of-addition; RD, US/MO/14-18947; 3 µM, 7 to 7 h post infection).
`N#Cc1ccc2c(c1)[C@H]1CCCN(C(=O)c3ccc4[nH]cnc4c3)[C@H]1C2` has a plasma level of 235 nmol/L (item: cortisol; human, Phase II trial; oral, 80 mg once daily, last treatment, HPA axis, mean).
For `c1coc(-c2n[nH]cc2-c2ccnc3ccccc23)c1`, “log2 fold change” read -0.3 (CKA1 (Candida albicans); kinase binding, MIB/MS competition; Candida albicans lysate; 1 µM; baseline: DMSO).
`CN[C@@H]1COc2c(S(=O)(=O)NC(=O)Nc3c4c(cc5c3CCC5)CCC4)cnn2C1` has an inhibition of 95.4% (item: IL-18; human participants, whole blood ex vivo; 300 mg twice daily, multiple doses, 4 h, IL-18, circulating, adjusted for, with: LPS/ATP; baseline: baseline).
For `CCn1c(=O)c(-c2cc[nH]n2)cc2c(C)nc(N)nc21`, “neuronal degeneration score” read 1 (enterovirus A71; suckling mouse, EV71-infected, brain; 0.25 mg/kg; direction not given).
`N#Cc1ccc2c(-c3ccncc3)c(-c3ccc(F)cc3)nn2c1`: “log2 fold change” -0.262 (kinase binding, competitor, MIB/MS competition, item: RTK1; Candida albicans cell lysate; 100 nM; baseline: DMSO).

Repeated from above:
`Cc1cccc(-c2[nH]c(CNc3ccccc3F)nc2-c2ccc3ncnn3c2)n1` gave a viability of 70% and 85% and 77% (MM1.S pomalidomide-resistant; XTT; 1 µM).
